Published values of several laboratories.
Numbered parts are unrelated; each lists some results of a single study. Positions count from the first letter of the parent shown.

Set 1
Target: Histone acetyltransferase KAT6A, winged helix 2, GST fusion (KAT6A, Homo sapiens, UniProt Q92794, residues 85-181)
Method: protein binding microarray
Form: double-stranded DNA, one strand shown
Matrix: in vitro
Tested at: not given
Notes: 8-mer, flanks averaged, mean of 2 arrays, mostly near background
Relative to: not given
Direction: higher = stronger binding
Measurement: E-score
Residues (chain): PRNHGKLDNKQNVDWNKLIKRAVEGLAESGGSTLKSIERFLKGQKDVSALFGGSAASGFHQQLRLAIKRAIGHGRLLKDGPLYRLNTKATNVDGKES
ACCCCCAT: -0.134
GCTACGAA: -0.0309
CAACGGAC: 0.145
AAGAATGA: -0.0951
AAGTCCGG: 0.0116
CTGAATTA: -0.038
TCCAACGA: 0.0455
ACCCTCCC: 0.224
AGGTACAC: -0.0577
CATCTTGC: 0.0368
ACTTGACC: -0.0476
TCACTGGA: 0.0511
TCCATCGA: 0.0456
CTACGTCA: -0.0482
AGAATATA: -0.227
AACATCAT: 0.0388
ATCCTCGC: 0.142
AGCGTGTC: -0.0309
GAATTAAA: -0.0553
CGAGAGAC: -0.152
AGTGAGAA: 0.191
ATTCACCC: -0.0721
ATAGCGTA: -0.123
CACAACCA: 0.0539
CAACTCCC: 0.156

Set 2
Target: Transcriptional repressor CTCF (CTCF, Homo sapiens, UniProt P49711, residues 1-727, full length assumed)
Sequence of UniProt P49711 (whole entry, looked up): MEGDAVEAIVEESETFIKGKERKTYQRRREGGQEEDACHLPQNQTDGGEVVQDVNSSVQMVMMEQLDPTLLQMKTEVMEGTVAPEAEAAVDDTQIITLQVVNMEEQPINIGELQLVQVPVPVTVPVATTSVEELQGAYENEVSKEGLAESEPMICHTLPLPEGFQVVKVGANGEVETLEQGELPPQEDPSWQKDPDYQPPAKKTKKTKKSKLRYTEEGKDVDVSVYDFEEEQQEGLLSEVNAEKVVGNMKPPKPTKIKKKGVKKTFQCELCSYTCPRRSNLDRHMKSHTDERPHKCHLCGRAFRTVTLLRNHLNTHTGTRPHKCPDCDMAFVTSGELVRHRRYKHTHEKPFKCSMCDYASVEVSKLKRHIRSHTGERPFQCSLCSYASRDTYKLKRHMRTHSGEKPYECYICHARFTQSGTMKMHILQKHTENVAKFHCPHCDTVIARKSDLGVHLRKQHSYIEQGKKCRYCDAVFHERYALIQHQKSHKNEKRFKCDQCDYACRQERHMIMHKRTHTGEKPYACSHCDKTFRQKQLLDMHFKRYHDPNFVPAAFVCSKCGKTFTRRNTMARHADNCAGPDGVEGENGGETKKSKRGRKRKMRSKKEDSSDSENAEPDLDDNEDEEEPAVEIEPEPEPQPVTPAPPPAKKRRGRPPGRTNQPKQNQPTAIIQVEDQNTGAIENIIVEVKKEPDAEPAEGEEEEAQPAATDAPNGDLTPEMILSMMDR
Method: protein-binding microarray
Form: double-stranded DNA, one strand shown
Matrix: in vitro
Tested at: not given
Notes: k-mer, scored over probes, only values ≥0.25
Direction: higher = stronger binding
Measurement: E-score
GTACGATA: 0.304
AATAGTAT: 0.342
ATAAACGA: 0.307
AGTTATTA: 0.275
AATATAGC: 0.275
TCATAACA: 0.305
ACTTAATA: 0.288
ATATAACG: 0.339
AAATGCGC: 0.406
ACGAAGAA: 0.258
GCGGCGCC: 0.305
ATTTTGTA: 0.353
GAGCGCCA: 0.28
CCCTGGCG: 0.28
AAGCTGAT: 0.335
AATAATGG: 0.254

Set 3
Target: RNA binding protein fox-1 homolog 2, RRM domain, GST-SBP tag (RBFOX2, Homo sapiens, UniProt O43251-10, residues 100-194)
Method: RNA Bind-n-Seq
Form: RNA
Matrix: in vitro
Tested at: 365 nM
Notes: natural RNA segment, single round, ends assumed
Relative to: no-protein control
Direction: higher = stronger binding
Measurement: RBNS enrichment (R)
Shared flanks, not repeated: GGGAGUUCUACAGUCCGACGAUC … UGGAAUUCUCGGGUGCCAA
Target sequence (chain): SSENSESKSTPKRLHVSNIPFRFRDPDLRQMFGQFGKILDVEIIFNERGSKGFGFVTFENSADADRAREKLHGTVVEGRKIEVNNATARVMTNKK
GUCUGCCACAAAGAUGCCAUAUCAACUCCUCUCUUCCCAAAACUAAACAGGAUCUAUCAUGGUGGCACGGAGUCAGCUAGAUGUUGUCUCUUGCUAUCCCUGUGCUAGUU: 0.421
UGUCACUUCAGCACAUCUUCCACAGCUGCCCAGCUGUCUUUGGUGUGUCCCGGAGGAACAGGCUAAGCAAGGGGCCCAGGAAGUUGUCCAGAGGACAGGGGCUAAUGAGC: 0.535
AGUGAGUGUGGCCUAGGAACAGGUCCCUUCCUAAGCUCUAGUGUCCCCAUCUGUAAAAUGGGCUGAUUGGCCUCCACGGUCAGAGCGGCCAUCUGGCUGUGCCAUCCUGC: 0.285
UCAAGAUUUUUUAUGUAUGUAUAAAUAAGUAUUUUGGUGUGCUACACAGCUUUUUCAAAUUACCAGUAAUUUGUCUUGUUUCUAAGGAGUGGGCCAGUACUAACUUAACU: 0.444
GGUACAGCCUUUUUUUAAAAUAAAUUAAUCUAUAUUGGUUGACAAACAAGCCACCAACCACUGACUGCAAAACUGCCUGAUGCAGUUGGGUUCCUCCUGGUUUUCUUUUG: 0.472
UUAUUUUUAAAAAGGAAGGAAGGAGCAAGUGAAGUUUCAUUCUGCUCCAGCGGUGGGGAAGCCGCUGAAUCCACCUGCUUCUCCUUUGCAACCGACAGCAAACAGCUUUC: 0.324
GGGCAACAUGGUGAAACCCUGUUUCUAUAAAAAAUAAUCUGGGCUUUGUAGCAUAUGCCUGUGGUCCCAGCUACUGAGGAGGCUGAGGUGGGAGGAUUGCUUGAGCCCAG: 0.954
UGGCAUUGGGAAACCUAUGACGGACUGUUUUUGCUGUAGAAGUAGGGAUUUUACAGAAGUCUCCUUGAAUUUGCCCUGCCUGGGGCAGUUUUGCAGAGGAACCUGCCAGA: 0.247
GGGAAGCAACUCCGUGUGCCUGGGGUUCCCGAGGGAGCUGCUGGCUGACCUGGGCCCACAGAGCCUGGCUUUGGUCCCCAGCAUUGCAGUAUGGUGUGGUGUUUGUAGGC: 1.21
CUGAGGACAGUGUGAAUAAUUGUAGCCUGACCUUUUGCAUUCUCCAGCUCAGCUGCUAGGAAGACUUACUUGUCAUGAUUUAUAUAAUAAAAUUAAGGACACUGAAAAUU: 0.573
AUUGCUUUGAUAAACAGAGUUGUUUGGAAUUAUUGAAGAACAUUUUAAAAUGACUCCCUCAGUGAGUGCGUUGUCCAGUGUAUCUCAAAAAUCACCUAGGAGUUUUGCUA: 0.396
GUGUUAAAACGAUCUUUCAGAUUUAGAGUGACUAUGUAAGAAUUUAGGAUUUCCUCUUUUCCAGGCACAUUGUAAACUGUGUCUACAGUUUAUCCAUAUAACUUCUCUUC: 0.236

Set 4
Organism: Saccharomyces cerevisiae
Effect on: binding
Method: competitive growth deep sequencing
Form: peptide
Strain: cyclin D2-Cln2 fusion strain
Tested at: concentration not given
Notes: peptide tiling library
Direction: direction not given
Measurement: growth enrichment score
KPITLDTTDFQESFVT: 0.78
GQLVIPLDELTLDTSF: 1.93
PARRRLRLSVDEVSSP: -0.767
IVLICAKRSLCAAFSV: -2.39
AIRKMREDRWAVIAKM: -0.71
NARRSLNFGGSTGT: -0.653
ESSQLTVQAEFDMSAI: 0.604
ALTMEALEDPSPELME: 0.367
PLRKAKRARLCSSSSS: 1.53
DSDSDSEGGAAGGEAD: 2.09
DTERAHSTLDEDLERW: 1.01
PAKRRLELGE: 1.27

Set 5
Target: RING finger protein unkempt homolog, zinc fingers 1-6, GST-SBP tag (UNK, Homo sapiens, UniProt Q9C0B0, residues 30-357)
Method: RNA Bind-n-Seq
Form: RNA
Matrix: in vitro
Tested at: not given
Notes: RNA with constant flanks, human-mouse chimeric sites, ends assumed
Relative to: input RNA pool
Direction: higher = stronger binding
Measurement: bound/input enrichment
Shared flanks, not repeated: GGGAGUUCUACAGUCCGACGAUC … CAACAGAGGAUUGAGCAUCA
Residues (chain): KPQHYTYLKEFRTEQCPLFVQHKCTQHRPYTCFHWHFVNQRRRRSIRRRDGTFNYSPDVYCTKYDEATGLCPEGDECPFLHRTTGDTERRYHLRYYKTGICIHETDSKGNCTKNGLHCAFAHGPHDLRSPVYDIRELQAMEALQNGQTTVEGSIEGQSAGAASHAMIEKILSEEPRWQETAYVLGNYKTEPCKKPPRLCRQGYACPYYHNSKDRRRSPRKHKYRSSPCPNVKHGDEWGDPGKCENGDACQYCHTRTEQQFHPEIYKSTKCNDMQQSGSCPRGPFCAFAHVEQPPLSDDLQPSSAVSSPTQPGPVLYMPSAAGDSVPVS
GAGUCGAGCAAACUUGAAACUACAGAAUAUCUUGCAGCCUCAGUGUUUUUACUUGCCGCGAUAGCAUUGGGGUUUUAUAGGUUCUGGAAGGAGAACUGACGAUGAUGCUGCCGCUGCUGC: 0.147 ratio
GAUCAUGAACCACCAUCAGAAAUGAAGAUGAGAUUACCCAAGACGAGCAAAACAGCUGCGCUACAGAAAAGUAAACUUAACCUUGCAGAGUUCCUUAAUGAAGAUACUAAGUUAGGAAGC: 0.355 ratio
CUUAAUGUUAAUAUUUUUGAAUAAAUGAAGCUAAAAUGUCUGCUUUUGGUACUACAUGCAUUAAUAAAAGGUUAAGUAAGUUUUGUUACUGAAGUACUAUUUAACAUCUCAGAAAAAAAC: 0.304 ratio
GAUCAUGAACCACCAUCAGAAAUGAAGAUGAGAUUACCCAGACGAGCCCAAAACCGCAGCACUAGAAAAAGUAAACUUAACCUUGCAGAGUUCCUUAAUGAAGAUACAAGUUAAGAGAGC: 0.813 ratio
GCCACCAGAUCCCAGAAACAUGACCCUUGCUGCCUACAAAGAGAAGAUGAAGGAGCUCCCGCUGGUGUCUCUGUUCUGCUCCUGCUUCCUGGCCGAUCCCCUGAAUAAGUCGUCCUACAA: 0.351 ratio
UUGAAAAACACAGAUAUCAAAGUUGUUGACUUUGGAAGUGCAACGUAUGAUGAUGAACAUCACAGUACUUUGGUGUCUACCCGGCACUACAGAGCUCCCGAGGUCAUUUUGGCUCUAGGU: 0.295 ratio
AGGAGGAGGUUAAAGGGUGAAAAUGGGGUGGAAGACUGUGUCAUGGCUCUGGAGACACUGUUCAGUGUCCUGCUUUCUCUGUGCAGACUGAUGGCCCCUUACACGCCUUUUCUCACUGAG: 0.0599 ratio
CGCUGGCCCAAGCUGAUGGACUCUGAUGGCCUCCAUCAAGGUAUUAUGUGUGCCUUCUCUUAGUUAUUGUUUUCGGGAUGUUAUGAAUCUCAGUACUGUGGUUUGAAAGCACCAGCUUUG: 15.6 ratio
AGAAUCUUGGGACUGUUUUGCUUGAUUGGUCAUUGAUAGCUUAACAAACAUGGAGAUAAGAUUAGAAAUCUUGACAUCAACAAGUAUUAAGCAGAAAAAACCAUGGCCACGUGUCUCCUG: 0.133 ratio
UUCUAGUAUGAUGGUGAUAUUGGAAAUUAUUAUUAUGGCCAGGGUCAUCCCAUGAAGCCUCAUAGAAUCCGGAUGACUCAUAACUUGCUGCUAAAUUAUGGUUUAUACCGAAAAAUGGAA: 0.239 ratio
CAGCCUCAGAGCCCUGACUUCCUGGAUAUUACCAACCCUAAAGCGGUAUUAGAAAAUGCAUUGAGAAACUUCGCCUGUCUGACGACUGGAGAUGUGAUUGCUAUCAACUAUAAUGAAAAG: 0.695 ratio

Set 6
Target: ABI1, truncated, D143A, DHFR fusion (Arabidopsis thaliana)
Method: DHFR PCA, deep sequencing
Matrix: yeast
Notes: methotrexate growth selection, single substitutions
Added: (+)-ABA 0.11 µM
Relative to: wild-type fitted maximum
Direction: higher = stronger binding
Measurement: relative binding score
Starting sequence: PYL1, truncated, DHFR fusion (Arabidopsis thaliana); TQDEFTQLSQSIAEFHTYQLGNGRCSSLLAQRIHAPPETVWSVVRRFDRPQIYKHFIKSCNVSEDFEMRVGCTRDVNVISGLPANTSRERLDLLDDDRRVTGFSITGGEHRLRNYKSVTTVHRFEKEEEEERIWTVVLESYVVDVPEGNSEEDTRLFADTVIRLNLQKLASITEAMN
C72W: 0.989%
V142I: 38.3%
V137F: -4.76%
R113G: 3.28%
H122Y: 5.67%
I172G: -7.52%
A35K: -2.73%
P146I: 17.9%
R155D: -11.1%
D96I: -6.08%
S11M: 23%
E152V: 10.3%
Q7Y: 34.9%
W41G: 0.643%
G148K: -13.4%
C60L: -1.28%
R113V: 33.4%
L138C: -1.03%
R113T: 19.8%
I172C: -4.03%
L82C: 16.3%
F66S: 9.44%
F103M: -9.04%
D97N: 38%
W41L: -2.43%

Set 7
Target: PABPC1L2, full length, GST fusion (mouse, UniProt A0ABA7IW68)
Method: RNAcompete
Form: RNA
Matrix: in vitro
Tested at: 20 nM
Notes: 7-mer, probes averaged, single round
Relative to: mean of 7-mers
Direction: higher = stronger binding
Measurement: 7-mer Z-score
Target sequence (chain): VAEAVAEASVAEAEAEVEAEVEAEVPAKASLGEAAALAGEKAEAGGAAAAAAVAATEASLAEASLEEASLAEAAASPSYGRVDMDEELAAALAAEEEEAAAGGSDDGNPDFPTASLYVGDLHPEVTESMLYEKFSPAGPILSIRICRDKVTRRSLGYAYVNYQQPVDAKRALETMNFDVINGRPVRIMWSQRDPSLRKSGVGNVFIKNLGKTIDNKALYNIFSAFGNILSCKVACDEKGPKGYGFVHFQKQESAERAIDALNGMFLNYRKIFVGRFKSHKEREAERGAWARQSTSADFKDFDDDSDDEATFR
UUCGACG: -0.235
UACGAGU: -0.171
AGAGAUA: 0.0696
GAAGGAC: 0.153
UAACCUA: -0.142
AGCGGAC: 0.0823
UUGGCUG: -0.144
CGUACUU: -0.219
CUUGAAU: -0.197
GCUCCCA: -0.224
AUAACAA: 0.477
UGGUCGU: -0.487
UAUUAGA: -0.132
GUUCCGA: 0.0297
CUUCAAG: -0.229
CAUACUG: -0.231
UGCUACG: -0.0971
CCUUGUA: -0.209
UACUAUG: -0.0536
GUUAGUA: -0.197
GGGUGCU: 0.2
UAUUAGU: -0.36
UUAACAU: -0.0881
ACUACCG: -0.204

Excerpt of the above (set 6):
V142I: 38.3%
V137F: -4.76%
R113G: 3.28%
H122Y: 5.67%
I172G: -7.52%
A35K: -2.73%
P146I: 17.9%
R155D: -11.1%
D96I: -6.08%
S11M: 23%
E152V: 10.3%
Q7Y: 34.9%
W41G: 0.643%
G148K: -13.4%
C60L: -1.28%
R113V: 33.4%
